Results collected from several papers.
Each line is one published result; not all experiments were run side by side.
Organism: Acinetobacter baumannii

COc1ccc2ccc3c(c2c1)C=[N+]1C2CCCCC2[N+]2=Cc4c(C)cccc4[O][Au-]21[O]3.F[P-](F)(F)(F)(F)F (stereo not shown)  MIC (bacterial growth, broth microdilution; carbapenem-resistant clinical isolate; 24 h): > 20 µM
Cc1ccc2ccc3ccc(C)nc3c2n1.Cc1ccc2ccc3ccc(C)nc3c2n1.O.[Cl-].[Cl-].[Cl-].[Yb+3]  MIC: 31 µg/mL
CN1/C(=C/C=C/c2cc(-c3ccccc3)cc(-c3ccccc3)[o+]2)C(C)(C)c2ccccc21  MIC (microbial growth, broth dilution; BAA1605): 2.5 µg/mL
CC[C@@H](C)[C@@H](NC(=O)[C@@H](C)NC(=O)[C@@H](CCCCN)NC(=O)[C@@H](CC(C)C)NC(=O)[C@@H](CC(C)C)NC(=O)[C@H](NC(=O)[C@@H](CCCCN)NC(=O)[C@@H](CC(C)C)NC(=O)[C@@H](C)NC(=O)[C@@H](CCCCN)NC(=O)[C@@H](CCCCN)NC(=O)[C@@H](CCCCN)NC(=O)[C@@H](C)NC(=O)[C@@H](CCCCN)NC(=O)[C@@H](CO)NC(=O)[C@@H](Cc1ccccc1)NC(=O)[C@H](NC(=O)[C@@H](CCCCN)NC(=O)[C@@H](CC(C)C)NC(=O)[C@@H](Cc1ccccc1)NC(=O)[C@@H](CO)NC(=O)[C@@H](CCCCN)NC(=O)[C@@H](Cc1c[nH]c2ccccc12)NC(=O)[C@@H](CCCCN)NC(C)=O)[C@H](C)O)[C@H](C)O)C(=O)N[C@H](CO)C(=O)N[C@H](CCCCN)C(N)=O  MIC (899, Mueller-Hinton broth; 24 h, 37 °C): 0.7 µM
Oc1c(Br)cc(Br)c2nc3c(C(F)(F)F)cc(C(F)(F)F)cc3nc12  MIC (range over strains): 12.5 to 75 µM
C=CCCNS(=O)(=O)c1ccc(-n2nnc(/C(C)=N/NC(=N)N)c2C)cc1  MIC (microbial growth, broth dilution; AB5075): > 64 µg/mL
CCn1cc[n+](CC)[c]1[Au-]([Cl])([Cl])[Cl]  MIC (broth dilution; DSM 30007; 20 h, 37 °C): 2.3 µM
Nc1nc(-c2ccc3nc(-c4ccccc4)[nH]c3c2)c[nH]1  MIC (ATCC 19606; compound alone): ≥ 200 µM
CC(=O)N[C@H](CCCCN)C(=O)N[C@H](CC(C)C)C(=O)N[C@H](CCCCN)C(=O)N[C@H](CO)C(=O)N[C@H](CC(C)C)C(=O)N[C@H](CC(C)C)C(=O)N[C@H](CCCCN)C(=O)N[C@@H](C(=O)N[C@H](CC(C)C)C(=O)N[C@H](CO)C(=O)N[C@H](CCCCN)C(=O)N[C@H](C)C(=O)N[C@H](CCCCN)C(=O)N[C@H](CCCCN)C(=O)N[C@H](CCCCN)C(=O)N[C@H](CCCCN)C(=O)N[C@H](CC(C)C)C(=O)N[C@H](CCCCN)C(=O)N[C@@H](C(=O)N[C@H](CC(C)C)C(=O)N[C@H](CC(C)C)C(=O)N[C@H](CCCCN)C(=O)N[C@H](C)C(=O)N[C@H](CC(C)C)C(=O)N[C@H](CO)C(=O)N[C@H](CCCCN)C(N)=O)[C@H](C)O)[C@H](C)O  MIC (broth microdilution; ATCC 19606; 24 h, 37 °C): 0.7 µM
Cc1ccc(-c2nc3ccc(-c4c[nH]c(N)n4)cc3[nH]2)cc1  MIC (ATCC 19606; compound alone): ≥ 200 µM
CC(C)CCCCC(=O)N[C@@H](CCN)C(=O)N[C@H](C(=O)N[C@@H](CCN)C(=O)N[C@H]1CCNC(=O)[C@H]([C@@H](C)O)NC(=O)[C@H](CCN)NC(=O)[C@H](CCN)NC(=O)[C@H](CC(C)C)NC(=O)[C@@H](Cc2ccccc2)NC(=O)[C@H](CCN)NC1=O)[C@@H](C)O  MIC (broth microdilution; ATCC 19606; 37 °C): 0.25 µg/mL
c1ccc(CN2CCOCCOCCN(CCCCCCCCCCN3CCOCCOCCN(CCCCCCCCCCN4CCOCCOCCN(Cc5ccccc5)CCOCCOCC4)CCOCCOCC3)CCOCCOCC2)cc1  MIC (microbial growth): 13 µM
COc1ccc2ccc3c(c2c1)C=[N+]1C2CCCCC2[N+]2=Cc4ccccc4[O][Au-]21[O]3.F[P-](F)(F)(F)(F)F (stereo not shown)  MIC (bacterial growth, broth microdilution; carbapenem-resistant clinical isolate; 24 h): > 20 µM
c1ccc(CN2CCOCCOCCN(CCCCCCCCCCCCCCN3CCOCCOCCN(CCCCCCCCCCCCCCN4CCOCCOCCN(Cc5ccccc5)CCOCCOCC4)CCOCCOCC3)CCOCCOCC2)cc1  MIC (meropenem-resistant): 12 µM
CC(C)C[C@H](NC(=O)[C@H](CC(N)=O)NC(=O)[C@H](CCCNC(=N)N)NC(=O)[C@@H](CC(C)C)NC(=O)[C@H](Cc1ccccc1)NC(=O)[C@H](CC(=O)O)NC(=O)[C@H](CCCCN)NC(=O)[C@@H](CC(C)C)NC(=O)[C@H](CCCNC(=N)N)NC(=O)[C@H](CCC(N)=O)NC(=O)[C@@H](NC(=O)[C@@H](CC(C)C)NC(=O)[C@H](CCCNC(=N)N)NC(=O)[C@H](CCCCN)NC(=O)[C@H](Cc1ccccc1)NC(=O)CN)C(C)C)C(=O)N[C@H](C(N)=O)C(C)C  MIC (broth microdilution; B2367-12): 6.2 to 12.5 µM
COc1ccc2ccc3c(c2c1)C=[N+]1C2CCCCC2[N+]2=Cc4cc(C(C)(C)C)ccc4[O][Au-]21[O]3.F[P-](F)(F)(F)(F)F (stereo not shown)  MIC (bacterial growth, broth microdilution; carbapenem-resistant clinical isolate; 24 h): > 20 µM
CCn1cc(C(=O)NCCNCCO)c(=O)c2cc(OC)c(OCc3cccc(F)c3)cc21  MIC (ATCC 19606; ≥80% growth inhibition): < 0.25 µg/mL
CCCS[C@H]1[C@H](O)[C@@H](N)[C@@H](O[C@H]2[C@H](O[C@@H]3O[C@H](CO)[C@@H](O[C@H]4O[C@@H](CN)[C@@H](O)[C@H](O)[C@H]4N)[C@H]3O)[C@@H](O)[C@H](N)C[C@@H]2N)O[C@@H]1CO  MIC (reference strain): 8 µg/mL
CC[P+](CC)(CC)[Au-][S][C@@H]1O[C@H](COC(C)=O)[C@H](OC(C)=O)[C@H](OC(C)=O)[C@H]1OC(C)=O  MIC (NCTC 13420): 47 µM
C/C(=N\NC(=N)N)c1nnn(-c2ccc(S(=O)(=O)NCC(C)C)cc2)c1C  MIC (microbial growth, broth dilution; AB5075): 8 µg/mL
COc1ccc2ccc3c(c2c1)C=[N+]1C2CCCCC2[N+]2=Cc4c(OC)cccc4[O][Au-]21[O]3.F[P-](F)(F)(F)(F)F (stereo not shown)  MIC (bacterial growth, broth microdilution; carbapenem-resistant clinical isolate; 24 h): > 20 µM
NCC1OC(OC2C(N)CC(N)C(OC3OC(CO)C(O)C(N)C3O)C2OCCCCCCCCn2cc(CNc3nc(NCc4cn(CCCCCCCCOC5C(OC6OC(CN)C(O)CC6N)C(N)CC(N)C5OC5OC(CO)C(O)C(N)C5O)nn4)nc(NCc4cn(CCCCCCCCOC5C(OC6OC(CN)C(O)CC6N)C(N)CC(N)C5OC5OC(CO)C(O)C(N)C5O)nn4)n3)nn2)C(N)CC1O (stereo not shown)  MIC (microbial growth, broth dilution; ATCC17978): > 128 µg/mL
CC[S+]([O-])C1C(CO)OC(OC2C(N)CC(N)C(O)C2OC2OC(CO)C(OC3OC(CN)C(O)C(O)C3N)C2O)C(N)C1O (mixture of isomers)  MIC (reference strain): > 128 µg/mL
CC(C)C[C@H](NC(=O)[C@H](CC(N)=O)NC(=O)[C@H](CCCNC(=N)N)NC(=O)[C@@H](CC(C)C)NC(=O)[C@H](Cc1ccc(C(F)(F)F)cc1)NC(=O)[C@H](CC(=O)O)NC(=O)[C@H](CCCCN)NC(=O)[C@@H](CC(C)C)NC(=O)[C@H](CCCNC(=N)N)NC(=O)[C@H](CCC(N)=O)NC(=O)[C@@H](NC(=O)[C@@H](CC(C)C)NC(=O)[C@H](CCCNC(=N)N)NC(=O)[C@H](CCCCN)NC(=O)[C@H](Cc1ccc2ccccc2c1)NC(=O)CN)C(C)C)C(=O)N[C@H](C(N)=O)C(C)C  MIC (broth microdilution; B2367-12): 3.1 µM
CC(C)C[C@@H](NC(=O)[C@@H](CC(C)C)NC(=O)[C@@H](CCCCN)NC(=O)[C@@H](CCCCNC(=O)[C@@H](CC(C)C)NC(=O)[C@@H](CC(C)C)NC(=O)[C@@H](CCCCNC(=O)[C@@H](CC(C)C)NC(=O)[C@@H](CCCCN)NC(=O)[C@@H](CCCCNC(=O)[C@@H](CC(C)C)NC(=O)[C@H](N)CCCCN)NC(=O)[C@@H](CC(C)C)NC(=O)[C@H](N)CCCCN)NC(=O)[C@@H](CC(C)C)NC(=O)[C@@H](CCCCN)NC(=O)[C@@H](CCCCNC(=O)[C@@H](CC(C)C)NC(=O)[C@H](N)CCCCN)NC(=O)[C@@H](CC(C)C)NC(=O)[C@H](N)CCCCN)NC(=O)[C@@H](CC(C)C)NC(=O)[C@@H](CC(C)C)NC(=O)[C@@H](CCCCNC(=O)[C@@H](CC(C)C)NC(=O)[C@@H](CCCCN)NC(=O)[C@@H](CCCCNC(=O)[C@@H](CC(C)C)NC(=O)[C@H](N)CCCCN)NC(=O)[C@@H](CC(C)C)NC(=O)[C@H](N)CCCCN)NC(=O)[C@@H](CC(C)C)NC(=O)[C@@H](CCCCN)NC(=O)[C@@H](CCCCNC(=O)[C@@H](CC(C)C)NC(=O)[C@H](N)CCCCN)NC(=O)[C@@H](CC(C)C)NC(=O)[C@H](N)CCCCN)C(N)=O  MIC (broth microdilution; ATCC 19606; 37 °C): 2 µg/mL

For quick reference, copied from above:
CC[S+]([O-])C1C(CO)OC(OC2C(N)CC(N)C(O)C2OC2OC(CO)C(OC3OC(CN)C(O)C(O)C3N)C2O)C(N)C1O (mixture of isomers)  MIC (reference strain): > 128 µg/mL
COc1ccc2ccc3c(c2c1)C=[N+]1C2CCCCC2[N+]2=Cc4ccccc4[O][Au-]21[O]3.F[P-](F)(F)(F)(F)F (stereo not shown)  MIC (bacterial growth, broth microdilution; carbapenem-resistant clinical isolate; 24 h): > 20 µM
